Measurements collected from several papers.
Parts stem from different laboratories: compare values within a part only. Positions count from the first letter of the parent shown.

Set 1
Target: Sal-like protein 4, full length isoform A (SALL4, Homo sapiens, UniProt Q9UJQ4, residues 1-1053)
Chain of UniProt Q9UJQ4 (whole entry, looked up): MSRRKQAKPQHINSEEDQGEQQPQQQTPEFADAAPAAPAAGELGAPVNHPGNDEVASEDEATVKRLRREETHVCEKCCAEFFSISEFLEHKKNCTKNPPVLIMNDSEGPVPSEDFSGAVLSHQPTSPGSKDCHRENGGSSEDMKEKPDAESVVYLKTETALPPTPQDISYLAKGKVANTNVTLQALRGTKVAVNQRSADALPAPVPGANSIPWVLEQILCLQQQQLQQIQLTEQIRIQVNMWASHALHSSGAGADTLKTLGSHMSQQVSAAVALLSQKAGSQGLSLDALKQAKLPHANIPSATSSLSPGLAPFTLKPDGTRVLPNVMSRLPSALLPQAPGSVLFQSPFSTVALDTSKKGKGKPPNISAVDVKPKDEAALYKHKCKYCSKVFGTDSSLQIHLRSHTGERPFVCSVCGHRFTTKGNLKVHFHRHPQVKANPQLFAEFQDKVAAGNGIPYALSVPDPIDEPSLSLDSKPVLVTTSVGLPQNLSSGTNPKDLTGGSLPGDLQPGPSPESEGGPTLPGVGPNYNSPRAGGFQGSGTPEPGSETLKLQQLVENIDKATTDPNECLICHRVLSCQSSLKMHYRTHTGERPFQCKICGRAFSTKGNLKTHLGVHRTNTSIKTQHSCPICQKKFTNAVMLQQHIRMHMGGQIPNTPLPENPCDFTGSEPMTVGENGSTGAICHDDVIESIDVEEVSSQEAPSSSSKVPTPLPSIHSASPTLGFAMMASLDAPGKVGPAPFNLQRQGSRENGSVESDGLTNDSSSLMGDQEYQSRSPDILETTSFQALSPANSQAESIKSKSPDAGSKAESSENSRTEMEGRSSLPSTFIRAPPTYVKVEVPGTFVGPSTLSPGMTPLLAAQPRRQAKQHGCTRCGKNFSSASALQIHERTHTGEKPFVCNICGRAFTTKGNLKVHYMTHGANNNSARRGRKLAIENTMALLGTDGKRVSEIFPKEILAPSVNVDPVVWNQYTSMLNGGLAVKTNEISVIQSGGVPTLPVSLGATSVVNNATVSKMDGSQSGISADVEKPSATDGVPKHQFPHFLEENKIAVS
Technique: universal PBM
Molecule type: double-stranded DNA, one strand shown
Matrix: in vitro
Tested at: 600 nM
Setting: 8-mer, flanks averaged, mean of replicates
Direction: higher = stronger binding
Oligonucleotide	E-score
CCATGGCA	-0.125
AGAGGTTG	-0.0862
ACTTCACT	0.0979
GCTAAGAA	-0.0717
CAAGTTAC	0.0566
ATTGCGTC	0.0311
AATATTCA	0.42
CCGCAACC	-0.207
AGCACCTG	-0.0578
GCAAGTAA	0.0939
ACCATCAT	0.149
GAATTCAC	-0.061
CCGGATGC	-0.391
ACAGTTTC	0.0899
ACTGGTAA	0.129
AGTCTGTG	-0.0982

Set 2
Target: Prothrombin, mature alpha-thrombin (F2, Homo sapiens, UniProt P00734)
Technique: aptamer microarray, sandwich
Molecule type: DNA with 2'F-ANA
Matrix: in vitro
Tested at: 200 nM
Setting: whole 15-mer aptamer, many near background
Together with: Cy3 exosite-II aptamer, 400 nM
Direction: higher = stronger binding
Oligonucleotide: GGTTGGTGTGGTTGG
Modification	mean fluorescence intensity [a.u.]
2'F-ANA at 1 2 6 8 10 12 13 15	79
2'F-ANA at 1 2 3 4 6 11 14 15	57.1
2'F-ANA at 1 3 4 6 8 9 10 11 12	92.2
2'F-ANA at 3 4 5 6 7 9 10 11 12 13 14	46
2'F-ANA at 2 3 8 11 14	474
2'F-ANA at 3 7 10 12 13 15	546
2'F-ANA at 2 3 6 8 12 14 15	424
2'F-ANA at 2 8 9 12 14	203
2'F-ANA at 4 6 7 8 12 13 15	393

Set 3
Target: Histone acetyltransferase KAT6A, both winged helices, GST fusion (KAT6A, Homo sapiens, UniProt Q92794, residues 1-181)
Technique: protein binding microarray
Molecule type: double-stranded DNA, one strand shown
Matrix: in vitro
Tested at: not given
Setting: 8-mer, flanks averaged, mean of 2 arrays, mostly near background
Reference: not given
Direction: higher = stronger binding
Construct (chain): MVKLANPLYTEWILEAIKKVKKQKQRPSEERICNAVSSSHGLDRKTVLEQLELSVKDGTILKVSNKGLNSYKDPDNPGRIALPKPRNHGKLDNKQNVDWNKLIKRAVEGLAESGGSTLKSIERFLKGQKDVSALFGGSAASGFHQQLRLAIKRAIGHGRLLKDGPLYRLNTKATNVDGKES
Oligonucleotide	E-score
GGACTCTA	-0.0791
GACGACTC	-0.0188
ATTGATTG	-0.00304
AAACGCTC	0.142
GCGATCCA	-0.0334
GAGTGCGA	-0.0147
AACCAAGT	0.0688
AAAAGCGT	0.0788
CGGCCCGC	0.294
AGGCGAAA	-0.115
CCGTGTCA	0.187
CAGTAACA	-0.0288
CTGGAATC	-0.0329
GACATTTA	-0.0512
GCGTACCC	0.128

Set 4
Target: CCND1, cyclin fold, Cln2 fusion (human)
Technique: yeast growth competition, sequencing
Matrix: yeast
Setting: strong parent motif
Reference: not given
Direction: higher = stronger binding
Parent: CDKN1A docking peptide (human); SKACRRLFGPVDS
Variant	normalised enrichment score
P10A	2.03
R5E	0.141
G9W	2.88
V11H	2.81
R6Y	0.816
C4H	0.451
D12G	1.76
F8Y	-0.00945
R6A	1.61
C4S	0.865
G9Q	2.97
F8Q	-0.0672
F8D	0.239

Set 5
Target: RNA binding protein fox-1 homolog 2, RRM domain, GST-SBP tag (RBFOX2, Homo sapiens, UniProt O43251-10, residues 100-194)
Technique: RNA Bind-n-Seq
Molecule type: RNA
Matrix: in vitro
Tested at: 365 nM
Setting: natural RNA segment, single round, ends assumed
Reference: no-protein control
Direction: higher = stronger binding
Construct (chain): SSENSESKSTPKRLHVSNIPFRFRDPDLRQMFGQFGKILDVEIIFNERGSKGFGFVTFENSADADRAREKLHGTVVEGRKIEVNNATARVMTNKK
Oligonucleotide	RBNS enrichment (R)
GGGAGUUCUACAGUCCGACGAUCAGGUAAUCGCCCAACUUGGCUUUGGGGAAAGUCAGAGUCUGACAGAGCUGAGCAUUGUCUCAUCCAGAGCUAAGGACAUGAGUCCUCUAUUUCAAGUAGGGAAACCCAGGUGGAAUUCUCGGGUGCCAA	0.292
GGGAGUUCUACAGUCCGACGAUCGUGGAUCUGCGGUGAAGCCAAGCCGCAAGGUUACAAGGCAUCCUCACCAGGGGCCCCGCCUGCUGCUCCCAGGUGGCCUGCGGCCACUGCUAUGCUCAAGGACCUGGAAAUGGAAUUCUCGGGUGCCAA	0.508
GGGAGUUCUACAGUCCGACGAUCACGCAUCAGCAUGCUCAAGGACUCCUAGAGUCUCUGCUGCCUGCCCACUGCACCACCAGGCAGCCAGGAUUCUAACCCCAUGCAGGCAACCGCCUCCGGAUGGAGCAGAGUGGAAUUCUCGGGUGCCAA	0.731
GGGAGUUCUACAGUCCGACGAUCCACAACAAGAAAUUCUUUAAAGCUGUGGAAGAAAUCUAGACGUGAGGGCCAGUCCAGGCUGUCAGCCCAUGCAGCUGACACUGGUUGGUCUCUCAGUAUGUGGGAAAUCCUGGAAUUCUCGGGUGCCAA	0.306
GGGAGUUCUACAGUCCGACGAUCGCAAGAUAUUAAAAUGUAUUUCUAAAUCCUCCUUGGUUUCAAUCAUGAAUAAACUUAUUAGCAAUUUAAAAUGUUGUUUGAAAUAAUUUGCAGGUACUUUAUAGAUUCUGUGGAAUUCUCGGGUGCCAA	0.475
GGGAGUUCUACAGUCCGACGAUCGACACUAGACUCAGUAGAUUUUUAGGGAAAAAUAUGAUUAAUAGUAUCAUGGUGAACCAUUUAUUUAACUGUUGAUCUAGUCACCAAUACCUAGAAGACACCAUAAUCAGUGGAAUUCUCGGGUGCCAA	0.289
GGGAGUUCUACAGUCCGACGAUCGGCCCCCAUGAAUGUCCUCGGAAGGGGGUGGCUCCUGGUAGCAUCCUUUUCCUUCACCAUCUAUGGGAUAUUAGGGGCAGAAUCUGCCACUUCUUGCCCAGGAGUGUGCAUGGAAUUCUCGGGUGCCAA	1.09
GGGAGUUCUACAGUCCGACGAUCUUCCACCUCGUGCACAGCGCUCUGCACAGACAACACGCUCAAUAAAAGUUCAGCCAUAGCAGCAAAACCCUGUGGCUGAGGUUCCUGUGUCCAGCACUCACUGGGGGCAAUGGAAUUCUCGGGUGCCAA	0.282
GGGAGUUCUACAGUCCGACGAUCAGACCCCGUCUCUACAAAAAAAAUUUAAAAAUUAGCUGAGCAUGGUGGCAUGUGCCAGUAGUCCCAGCUACUCGAAAGGCUAAGACUGGAGGAUCGCUUGAGCCAAUGAGUGGAAUUCUCGGGUGCCAA	0.559

Set 6
Target: Phosphate system positive regulatory protein PHO4, full length, GST-tagged (PHO4, Saccharomyces cerevisiae, UniProt P07270, residues 1-312)
Technique: competition protein-binding microarray
Molecule type: double-stranded DNA, one strand shown
Matrix: in vitro
Tested at: 2 µM
Setting: whole 60-bp probe, lowest competitor level
Together with: Cbf1 competitor, 0.05 µM
Direction: higher = stronger binding
Residues (chain): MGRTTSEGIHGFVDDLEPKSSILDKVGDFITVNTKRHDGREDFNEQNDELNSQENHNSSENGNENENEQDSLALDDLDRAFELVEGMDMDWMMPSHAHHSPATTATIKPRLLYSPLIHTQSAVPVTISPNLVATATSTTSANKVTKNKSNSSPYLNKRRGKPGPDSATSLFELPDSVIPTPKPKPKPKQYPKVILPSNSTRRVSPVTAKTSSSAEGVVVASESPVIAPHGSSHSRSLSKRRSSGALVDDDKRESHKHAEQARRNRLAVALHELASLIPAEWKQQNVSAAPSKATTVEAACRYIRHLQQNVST
Oligonucleotide	fluorescence intensity
GAACGTTAGTACTTGACCGTGCAATAATGGGAAGCAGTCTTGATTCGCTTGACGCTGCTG	5680 a.u.
AACAATAACTGCCAAAACGTGGTGAACGGACGCTGAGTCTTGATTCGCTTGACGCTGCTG	14200 a.u.
CATACCCAACCTTGTCACTCCACTTAAGATATTTGTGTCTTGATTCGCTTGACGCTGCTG	3930 a.u.
CGTCCTAGTGATTGCTTCGTGGGTGCCATGAGGAAGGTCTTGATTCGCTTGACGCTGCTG	7910 a.u.
AAATTACTAAGTTGTCACTTGACTTACCCCGTATGAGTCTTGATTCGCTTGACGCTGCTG	3180 a.u.

Set 7
Target: Interferon regulatory factor 3, full length, phosphomimetic (IRF3, Homo sapiens, UniProt Q14653, residues 1-427, S386D/S396D/S398D/S402D/T404D/S405D)
Chain of UniProt Q14653 (whole entry, unmodified, looked up): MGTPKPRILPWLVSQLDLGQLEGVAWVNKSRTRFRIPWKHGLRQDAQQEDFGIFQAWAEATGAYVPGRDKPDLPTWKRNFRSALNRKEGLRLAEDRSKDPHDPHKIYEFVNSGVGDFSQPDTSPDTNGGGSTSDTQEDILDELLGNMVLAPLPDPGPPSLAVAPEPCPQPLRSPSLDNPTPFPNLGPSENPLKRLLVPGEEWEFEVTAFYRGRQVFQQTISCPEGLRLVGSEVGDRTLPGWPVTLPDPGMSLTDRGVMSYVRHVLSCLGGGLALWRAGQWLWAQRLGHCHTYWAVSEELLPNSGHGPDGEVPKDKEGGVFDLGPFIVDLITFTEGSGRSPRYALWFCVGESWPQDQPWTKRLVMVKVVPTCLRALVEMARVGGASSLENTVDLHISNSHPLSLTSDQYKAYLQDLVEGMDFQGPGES
Technique: protein-binding microarray
Molecule type: double-stranded DNA, one strand shown
Matrix: in vitro
Tested at: 2540 nM top
Setting: 60-bp whole probe
Together with: salmon DNA 0.4 mg/ml
Reference: random background probes
Direction: higher = stronger binding
All sequences stand within: GCCTAGCAC … GTCTTGATTCGCTTGACGCTGCTG
Oligonucleotide	fitted relative affinity [z-score]
TTAGGTAACGGGTTTCGGTTAGTGCTA	2.97
GACGATATCGGGACTGGCGACGTGCTA	0.015
TAAGGTTTCGACTTTCGGTTAGTGCTA	3.78
CTCTGGGGCTCCAGGGAGAAGTGCTAG	-1.34
AAAATGATTGGTTGAACATGGTGCTAG	-0.152
GACGATTGCAGACTGGAGACGTGCTAG	-0.0303
TCACATGTGCCTTTATAACTGTGCTAG	0.468
GGCGGTTTCGGTTTCGGGACGTGCTAG	10.9
GGCGGTTTCGGTTCCGGGACGTGCTAG	10.1
TCAACTTCTCTTTTTGCACTGTGCTAG	1.49
TCAACTTTTATTTTCAGACTGTGCTAG	1.5
TCTTTTTGCTTTCTTTATGCGTGCTAG	2.55
GAAAGCCTGCTGCCAGTCTGGTGCTAG	-0.831
TAAGATATCGGGTTTCGATTAGTGCTA	2.12
GACGGACAGGACTATCGGGACGTGCTA	-0.471
TTAGGTTCCCTTTACCTTTAGTGCTAG	5.95

Repeated from above (set 3):
Oligonucleotide	E-score
AACCAAGT	0.0688
AAAAGCGT	0.0788
CGGCCCGC	0.294
AGGCGAAA	-0.115
CCGTGTCA	0.187
